{"data": "Measurements collected from several papers", "note": "A part holds a random share of what one study measured.", "UniProt P52333, sequence (whole entry, looked up)": "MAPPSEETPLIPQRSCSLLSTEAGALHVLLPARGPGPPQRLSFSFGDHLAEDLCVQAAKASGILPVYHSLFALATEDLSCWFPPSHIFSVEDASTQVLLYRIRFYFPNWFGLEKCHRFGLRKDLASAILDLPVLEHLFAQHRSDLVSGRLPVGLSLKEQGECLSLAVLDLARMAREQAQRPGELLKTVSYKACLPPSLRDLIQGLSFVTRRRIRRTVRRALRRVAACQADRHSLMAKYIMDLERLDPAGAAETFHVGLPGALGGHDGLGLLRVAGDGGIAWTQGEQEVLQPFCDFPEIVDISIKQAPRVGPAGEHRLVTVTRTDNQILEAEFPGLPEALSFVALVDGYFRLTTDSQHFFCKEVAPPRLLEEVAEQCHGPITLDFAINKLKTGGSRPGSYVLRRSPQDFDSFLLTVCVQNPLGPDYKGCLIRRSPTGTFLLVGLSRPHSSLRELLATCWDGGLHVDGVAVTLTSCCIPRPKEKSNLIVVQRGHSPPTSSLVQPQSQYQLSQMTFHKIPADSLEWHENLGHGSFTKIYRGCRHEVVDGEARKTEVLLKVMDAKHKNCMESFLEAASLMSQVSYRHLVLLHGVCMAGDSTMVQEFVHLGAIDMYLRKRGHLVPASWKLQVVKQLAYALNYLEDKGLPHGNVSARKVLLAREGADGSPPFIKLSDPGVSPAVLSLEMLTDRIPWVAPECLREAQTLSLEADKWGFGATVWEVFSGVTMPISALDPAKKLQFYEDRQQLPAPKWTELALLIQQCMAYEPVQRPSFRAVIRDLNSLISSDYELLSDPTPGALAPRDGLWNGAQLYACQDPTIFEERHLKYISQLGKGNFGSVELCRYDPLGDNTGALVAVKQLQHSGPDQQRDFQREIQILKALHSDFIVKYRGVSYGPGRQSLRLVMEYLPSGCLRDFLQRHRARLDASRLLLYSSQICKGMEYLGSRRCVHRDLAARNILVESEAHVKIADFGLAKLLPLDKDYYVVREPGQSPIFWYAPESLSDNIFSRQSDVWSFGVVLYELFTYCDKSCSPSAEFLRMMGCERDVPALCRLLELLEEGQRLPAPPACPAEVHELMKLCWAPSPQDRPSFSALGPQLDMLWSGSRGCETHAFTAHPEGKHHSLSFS", "UniProt O60331, sequence (whole entry, looked up)": "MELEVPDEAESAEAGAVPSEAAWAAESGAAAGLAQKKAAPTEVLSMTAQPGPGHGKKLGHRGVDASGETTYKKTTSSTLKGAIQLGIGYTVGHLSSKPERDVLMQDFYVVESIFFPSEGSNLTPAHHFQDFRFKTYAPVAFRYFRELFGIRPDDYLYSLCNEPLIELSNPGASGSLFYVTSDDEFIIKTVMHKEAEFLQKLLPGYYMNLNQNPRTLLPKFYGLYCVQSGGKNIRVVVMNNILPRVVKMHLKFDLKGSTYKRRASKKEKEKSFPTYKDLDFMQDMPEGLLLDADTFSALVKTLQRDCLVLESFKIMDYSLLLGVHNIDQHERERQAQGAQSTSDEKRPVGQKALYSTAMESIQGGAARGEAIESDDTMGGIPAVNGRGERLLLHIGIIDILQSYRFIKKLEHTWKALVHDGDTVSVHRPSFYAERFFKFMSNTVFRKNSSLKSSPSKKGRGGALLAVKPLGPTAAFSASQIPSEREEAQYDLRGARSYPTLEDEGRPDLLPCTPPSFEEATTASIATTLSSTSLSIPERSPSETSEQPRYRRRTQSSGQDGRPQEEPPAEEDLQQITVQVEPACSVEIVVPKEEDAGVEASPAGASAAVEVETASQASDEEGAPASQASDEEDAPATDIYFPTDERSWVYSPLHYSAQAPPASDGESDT", "UniProt Q9NYL2, sequence (whole entry, looked up)": "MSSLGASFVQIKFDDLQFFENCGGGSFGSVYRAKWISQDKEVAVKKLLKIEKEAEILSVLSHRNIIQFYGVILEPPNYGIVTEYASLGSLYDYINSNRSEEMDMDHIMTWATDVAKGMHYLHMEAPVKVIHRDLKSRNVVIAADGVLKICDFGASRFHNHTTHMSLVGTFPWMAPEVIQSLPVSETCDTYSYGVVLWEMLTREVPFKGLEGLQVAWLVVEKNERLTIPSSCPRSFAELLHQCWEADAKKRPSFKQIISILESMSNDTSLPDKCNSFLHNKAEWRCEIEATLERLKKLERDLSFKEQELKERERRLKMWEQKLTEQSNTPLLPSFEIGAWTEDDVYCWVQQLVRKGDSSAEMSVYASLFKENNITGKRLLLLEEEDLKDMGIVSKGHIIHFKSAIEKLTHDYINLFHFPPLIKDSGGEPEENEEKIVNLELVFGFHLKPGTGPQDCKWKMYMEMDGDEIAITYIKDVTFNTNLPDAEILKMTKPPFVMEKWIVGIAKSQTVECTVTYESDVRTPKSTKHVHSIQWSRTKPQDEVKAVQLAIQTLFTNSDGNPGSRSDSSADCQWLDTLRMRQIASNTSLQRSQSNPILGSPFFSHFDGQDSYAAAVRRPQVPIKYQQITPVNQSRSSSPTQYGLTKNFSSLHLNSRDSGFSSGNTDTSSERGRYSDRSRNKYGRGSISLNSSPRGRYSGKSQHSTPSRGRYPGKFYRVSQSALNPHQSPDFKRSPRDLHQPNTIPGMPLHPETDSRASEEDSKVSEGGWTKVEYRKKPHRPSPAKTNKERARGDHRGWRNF", "UniProt Q12852, sequence (whole entry, looked up)": "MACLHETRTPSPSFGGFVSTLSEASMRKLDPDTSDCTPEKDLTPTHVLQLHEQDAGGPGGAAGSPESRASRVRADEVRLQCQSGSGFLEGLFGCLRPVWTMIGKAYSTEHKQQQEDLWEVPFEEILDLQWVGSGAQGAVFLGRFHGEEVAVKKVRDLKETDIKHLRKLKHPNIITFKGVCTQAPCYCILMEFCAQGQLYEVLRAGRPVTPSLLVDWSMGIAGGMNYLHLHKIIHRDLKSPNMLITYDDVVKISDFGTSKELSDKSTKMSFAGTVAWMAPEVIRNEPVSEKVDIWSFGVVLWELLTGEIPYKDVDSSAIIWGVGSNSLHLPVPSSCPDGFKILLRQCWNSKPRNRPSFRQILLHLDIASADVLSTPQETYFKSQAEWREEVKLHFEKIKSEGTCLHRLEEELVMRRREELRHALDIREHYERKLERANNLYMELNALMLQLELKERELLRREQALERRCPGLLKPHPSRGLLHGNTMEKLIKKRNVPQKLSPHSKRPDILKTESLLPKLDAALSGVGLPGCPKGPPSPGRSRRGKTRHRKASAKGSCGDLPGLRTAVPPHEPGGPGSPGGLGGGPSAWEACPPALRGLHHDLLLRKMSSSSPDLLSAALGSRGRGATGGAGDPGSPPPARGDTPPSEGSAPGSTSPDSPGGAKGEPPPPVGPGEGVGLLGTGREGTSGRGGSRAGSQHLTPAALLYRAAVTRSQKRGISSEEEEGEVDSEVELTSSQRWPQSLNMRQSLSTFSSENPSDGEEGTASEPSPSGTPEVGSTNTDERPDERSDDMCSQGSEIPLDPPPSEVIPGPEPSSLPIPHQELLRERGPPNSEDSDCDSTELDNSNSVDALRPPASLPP", "UniProt P28482, sequence (whole entry, looked up)": "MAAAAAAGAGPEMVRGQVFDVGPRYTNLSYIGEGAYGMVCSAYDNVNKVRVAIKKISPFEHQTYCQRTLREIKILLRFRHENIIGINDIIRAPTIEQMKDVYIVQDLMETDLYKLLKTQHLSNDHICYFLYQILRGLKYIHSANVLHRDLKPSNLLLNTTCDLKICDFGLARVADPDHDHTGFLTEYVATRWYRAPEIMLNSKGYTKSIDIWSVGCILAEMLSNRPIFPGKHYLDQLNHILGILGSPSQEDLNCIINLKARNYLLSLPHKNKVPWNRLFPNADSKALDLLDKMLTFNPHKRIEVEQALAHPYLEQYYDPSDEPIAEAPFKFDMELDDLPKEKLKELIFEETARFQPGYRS", "UniProt P29320, sequence (whole entry, looked up)": "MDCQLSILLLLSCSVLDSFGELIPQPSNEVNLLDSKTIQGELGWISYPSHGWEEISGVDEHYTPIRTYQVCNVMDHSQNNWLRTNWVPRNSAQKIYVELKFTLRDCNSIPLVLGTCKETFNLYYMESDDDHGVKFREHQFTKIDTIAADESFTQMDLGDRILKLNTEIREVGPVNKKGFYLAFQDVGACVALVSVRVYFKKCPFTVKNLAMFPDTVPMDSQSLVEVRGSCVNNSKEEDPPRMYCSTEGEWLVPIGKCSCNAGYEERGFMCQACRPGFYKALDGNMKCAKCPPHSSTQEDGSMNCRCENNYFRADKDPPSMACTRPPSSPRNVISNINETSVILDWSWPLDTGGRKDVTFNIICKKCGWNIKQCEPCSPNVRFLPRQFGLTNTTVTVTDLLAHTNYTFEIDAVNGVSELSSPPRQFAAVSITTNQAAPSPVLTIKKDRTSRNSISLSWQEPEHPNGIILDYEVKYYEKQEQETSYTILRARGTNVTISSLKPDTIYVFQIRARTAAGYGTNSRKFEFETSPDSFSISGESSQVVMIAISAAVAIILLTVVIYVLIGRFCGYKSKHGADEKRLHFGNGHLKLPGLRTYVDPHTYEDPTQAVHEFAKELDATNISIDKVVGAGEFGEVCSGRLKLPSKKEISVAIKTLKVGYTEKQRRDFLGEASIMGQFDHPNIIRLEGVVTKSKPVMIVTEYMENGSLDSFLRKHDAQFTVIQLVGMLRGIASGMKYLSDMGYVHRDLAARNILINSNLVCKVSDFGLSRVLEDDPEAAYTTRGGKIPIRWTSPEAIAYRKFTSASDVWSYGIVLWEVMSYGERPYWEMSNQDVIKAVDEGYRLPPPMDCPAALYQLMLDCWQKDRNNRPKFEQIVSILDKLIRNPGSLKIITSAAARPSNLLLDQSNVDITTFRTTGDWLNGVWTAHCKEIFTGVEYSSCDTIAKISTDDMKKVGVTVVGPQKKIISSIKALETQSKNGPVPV"}
{"data": "Set 1", "species": "mouse", "matrix": "microsomes or S9", "concentration": "2 µM", "time": "0.5 h"}
{"Compound": "Cn1cc(-c2nn(S(=O)(=O)c3ccc(Br)s3)c(-c3cnn(C)c3)c2Cl)cn1", "remaining compound [%]": 0.0123}
{"Compound": "CCCc1nc(N(C)Cc2cc(-c3ccccc3)n[nH]2)c2cnn(C)c2n1", "remaining compound [%]": 6.61}
{"Compound": "Cn1cc(-c2cc3n(n2)CCC(=O)N3CCCC(=O)N2CCN(c3ccccn3)CC2)c2ccccc21", "remaining compound [%]": 30.1}
{"Compound": "CCCC(=O)CSc1[nH]c(=O)cc(C)c1C#N", "remaining compound [%]": "> 99"}
{"Compound": "COc1ccc(-c2cc(-c3nc4c5ccccc5ncn4n3)n[nH]2)cc1", "remaining compound [%]": 21.2}
{"Compound": "CCN(CC)S(=O)(=O)c1cc(C(=O)N2CCN(Cc3cnn(C)c3)CC2)c(Cl)cc1Cl", "remaining compound [%]": 1.71}
{"Compound": "COc1ccccc1CCN1C(O)=c2ccccc2=NC12C(=O)Nc1ccccc12 (stereo not drawn)", "remaining compound [%]": 0.2}
{"Compound": "CC(NS(C)(=O)=O)c1nnc(N2CCC(C(C)(C)C)C2)n1CC1CCCCO1 (stereo not drawn)", "remaining compound [%]": 6.22}
{"Compound": "COc1ccc(C(=O)N2C[C@@H](NC(=O)N(C)C)[C@H](C(C)C)C2)c(OC)n1", "remaining compound [%]": 66.4}
{"Compound": "O=c1c2cc3c(=O)n(C4CCCC4)ccc3nc2ccn1-c1ncn[nH]1", "remaining compound [%]": 59.6}
{"Compound": "Nc1ccc(Oc2ccnc3ccsc23)c(F)c1", "remaining compound [%]": 35.3}
{"data": "Set 2", "matrix": "1,9-decadiene/PBS", "pH": "7.4"}
{"SMILES": "CC(C)C[C@@H]1NC(=O)[C@@H](C)NC(=O)[C@H](CCC(=O)N2CCCC2)NC(=O)[C@@H](C(C)C)NC(=O)[C@H](C(C)C)NC(=O)[C@H](CC(C)C)NC(=O)[C@@H](CC(C)C)NC1=O", "logD": -0.66}
{"SMILES": "CC(C)C[C@@H]1NC(=O)[C@@H](C)NC(=O)[C@H](Cc2cscn2)NC(=O)[C@@H](CC(C)C)NC(=O)[C@H](C(C)C)NC(=O)[C@H](CC(C)C)NC(=O)[C@@H](CC(C)C)NC1=O", "logD": -0.497}
{"SMILES": "CC(C)C[C@@H]1NC(=O)[C@H](Cc2cscn2)NC(=O)[C@H](C)NC(=O)[C@@H](CC(C)C)NC(=O)[C@@H](CCC(=O)N2CCCC2)NC(=O)[C@H](CC(C)C)NC(=O)[C@@H](CC(C)C)NC1=O", "logD": -0.927}
{"SMILES": "CC(C)C[C@@H]1NC(=O)[C@H](C)NC(=O)[C@@H](C(C)C)NC(=O)[C@H](C(C)C)NC(=O)[C@H](CC(C)C)NC(=O)[C@@H](CC(C)C)NC(=O)[C@H](CC(C)C)NC1=O", "logD": 0.474}
{"SMILES": "CC(C)C[C@@H]1NC(=O)[C@H](C)NC(=O)[C@@H](CC(C)C)NC(=O)[C@H](C)NC(=O)[C@H](C)NC(=O)[C@H](CC(C)C)NC(=O)[C@@H](CC(C)C)NC1=O", "logD": -1.63}
{"SMILES": "CC(C)C[C@@H]1NC(=O)[C@H](CC(C)C)NC(=O)[C@@H](C(C)C)NC(=O)[C@H](C(C)C)NC(=O)[C@H](C)NC(=O)[C@H](Cc2cscn2)NC(=O)[C@H](CCC(=O)N2CCCC2)NC1=O", "logD": -3.12}
{"SMILES": "CC(C)C[C@@H]1NC(=O)[C@H](CC(C)C)NC(=O)[C@@H](C(C)C)NC(=O)[C@H](CC(C)C)NC(=O)[C@@H](Cc2cscn2)NC(=O)[C@H](CCC(=O)N2CCCC2)NC(=O)[C@H](C)NC1=O", "logD": -2.58}
{"SMILES": "CC(C)C[C@@H]1NC(=O)[C@H](CC(C)C)NC(=O)[C@H](CC(C)C)NC(=O)[C@H](C(C)C)NC(=O)[C@@H](CCC(=O)N2CCCC2)NC(=O)[C@H](Cc2cscn2)NC(=O)[C@H](C)NC1=O", "logD": -1.77}
{"SMILES": "CC(C)C[C@@H]1NC(=O)[C@H](CC(C)C)NC(=O)[C@H](CC(C)C)NC(=O)[C@H](C(C)C)NC(=O)[C@@H](CCC(=O)N2CCCC2)NC(=O)[C@H](C)NC(=O)[C@H](C)NC1=O", "logD": -2.03}
{"SMILES": "CC(C)C[C@@H]1NC(=O)[C@H](Cc2cscn2)NC(=O)[C@@H](CC(C)C)NC(=O)[C@@H](CCC(=O)N2CCCC2)NC(=O)[C@H](CC(C)C)NC(=O)[C@@H](CC(C)C)NC(=O)[C@H](CC(C)C)NC1=O", "logD": 0.317}
{"SMILES": "CC(C)C[C@@H]1NC(=O)[C@H](CC(C)C)NC(=O)[C@@H](C(C)C)NC(=O)[C@H](C(C)C)NC(=O)[C@H](C(C)C)NC(=O)[C@H](Cc2cscn2)NC(=O)[C@H](C)NC1=O", "logD": -1.45}
{"SMILES": "CC(C)C[C@@H]1NC(=O)[C@H](CC(C)C)NC(=O)[C@H](CC(C)C)NC(=O)[C@H](C(C)C)NC(=O)[C@@H](Cc2cscn2)NC(=O)[C@H](Cc2cscn2)NC(=O)[C@H](CCC(=O)N2CCCC2)NC1=O", "logD": -1.68}
{"SMILES": "CC(C)C[C@@H]1NC(=O)[C@H](C)NC(=O)[C@@H](CC(C)C)NC(=O)[C@H](C)NC(=O)[C@H](C(C)C)NC(=O)[C@H](CC(C)C)NC(=O)[C@@H](CC(C)C)NC1=O", "logD": -0.137}
{"SMILES": "CC(C)C[C@@H]1NC(=O)[C@H](CC(C)C)NC(=O)[C@@H](CC(C)C)NC(=O)[C@@H](C)NC(=O)[C@H](C(C)C)NC(=O)[C@H](Cc2cscn2)NC(=O)[C@H](C)NC1=O", "logD": -1.61}
{"data": "Set 3", "SMILES": "Cc1cc(NC(=O)c2cccc(S(F)(F)(F)(F)F)c2)cc(-n2ccn3nc(-c4cccnc4)cc23)c1", "concentration": "1 µM"}
{"target": "MAP3K12 (Homo sapiens, UniProt Q12852)", "test": "cell-free assay, competition with immobilised ligand", "remaining binding": "67.7%"}
{"target": "ACVRL1 (Homo sapiens, UniProt P37023)", "test": "cell-free assay, competition with immobilised ligand", "remaining binding": "100%"}
{"target": "CAMK1D (Homo sapiens, UniProt Q8IU85)", "test": "cell-free assay, competition with immobilised ligand", "remaining binding": "94.9%"}
{"target": "PRKCE (Homo sapiens, UniProt Q02156)", "test": "cell-free assay, competition with immobilised ligand", "remaining binding": "91.2%"}
{"target": "CSNK1G3 (Homo sapiens, UniProt Q9Y6M4)", "test": "cell-free assay, competition with immobilised ligand", "remaining binding": "100%"}
{"target": "MYLK3 (Homo sapiens, UniProt Q32MK0)", "test": "cell-free assay, competition with immobilised ligand", "remaining binding": "100%"}
{"target": "EIF2AK1 (Homo sapiens, UniProt Q9BQI3)", "test": "cell-free assay, competition with immobilised ligand", "remaining binding": "100%"}
{"target": "TRPM6 (Homo sapiens, UniProt Q9BX84)", "test": "cell-free assay, competition with immobilised ligand", "remaining binding": "97%"}
{"target": "CDC42BPG (Homo sapiens, UniProt Q6DT37)", "test": "competition binding", "remaining binding": "100%"}
{"target": "MAP3K20 (Homo sapiens, UniProt Q9NYL2)", "test": "cell-free assay, competition with immobilised ligand", "remaining binding": "84.4%"}
{"target": "ALK (Homo sapiens, UniProt Q9UM73, L1196M)", "test": "cell-free assay, competition with immobilised ligand", "remaining binding": "100%"}
{"target": "ULK2 (Homo sapiens, UniProt Q8IYT8)", "test": "cell-free assay, competition with immobilised ligand", "remaining binding": "73.7%"}
{"target": "PIP4K2C (Homo sapiens, UniProt Q8TBX8)", "test": "cell-free assay, competition with immobilised ligand", "remaining binding": "99.1%"}
{"target": "NEK2 (Homo sapiens, UniProt P51955)", "test": "cell-free assay, competition with immobilised ligand", "remaining binding": "90.8%"}
{"target": "NUAK1 (Homo sapiens, UniProt O60285)", "test": "cell-free assay, competition with immobilised ligand", "remaining binding": "51.3%"}
{"target": "MAPK1 (Homo sapiens, UniProt P28482)", "test": "cell-free assay, competition with immobilised ligand", "remaining binding": "61.7%"}
{"target": "CHEK2 (Homo sapiens, UniProt O96017)", "test": "cell-free assay, competition with immobilised ligand", "remaining binding": "100%"}
{"target": "PDGFRA (Homo sapiens, UniProt P16234)", "test": "cell-free assay, competition with immobilised ligand", "remaining binding": "100%"}
{"target": "TGFBR1 (Homo sapiens, UniProt P36897)", "test": "cell-free assay, competition with immobilised ligand", "remaining binding": "74.3%"}
{"target": "CDK18 (Homo sapiens, UniProt Q07002)", "test": "cell-free assay, competition with immobilised ligand", "remaining binding": "80.6%"}
{"target": "PIP5K1C (Homo sapiens, UniProt O60331)", "test": "cell-free assay, competition with immobilised ligand", "remaining binding": "100%"}
{"target": "HIPK4 (Homo sapiens, UniProt Q8NE63)", "test": "cell-free assay, competition with immobilised ligand", "remaining binding": "100%"}
{"target": "Ribosomal protein S6 kinase alpha-6, N-terminal kinase domain (RPS6KA6, Homo sapiens, UniProt Q9UK32)", "test": "cell-free assay, competition with immobilised ligand", "remaining binding": "100%"}
{"target": "eIF-2-alpha kinase GCN2, C-terminal kinase domain (EIF2AK4, Homo sapiens, UniProt Q9P2K8, S808G)", "test": "cell-free assay, competition with immobilised ligand", "remaining binding": "100%"}
{"target": "PIK3C2G (Homo sapiens, UniProt O75747)", "test": "cell-free assay, competition with immobilised ligand", "remaining binding": "100%"}
{"data": "Set 4", "SMILES": "O=C(Nc1ccc(Cl)cc1)c1ccccc1NCc1ccncc1", "read-out": "enzyme activity", "mode": "inhibitor", "concentration": "0.5 µM", "reference": "control"}
{"target": "MERTK (Homo sapiens, UniProt Q12866)", "remaining activity [%]": 79}
{"target": "JAK3 (Homo sapiens, UniProt P52333)", "remaining activity [%]": 87.8}
{"target": "WEE1 (Homo sapiens, UniProt P30291)", "remaining activity [%]": 90.1}
{"target": "ARAF (Homo sapiens, UniProt P10398)", "remaining activity [%]": 91.4}
{"target": "NEK6 (Homo sapiens, UniProt Q9HC98)", "remaining activity [%]": 97.1}
{"target": "MAP2K2 (Homo sapiens, UniProt P36507)", "remaining activity [%]": 102}
{"target": "ACVR1B (Homo sapiens, UniProt P36896)", "remaining activity [%]": 95.8}
{"target": "EPHA3 (Homo sapiens, UniProt P29320)", "remaining activity [%]": 92.1}
{"target": "FGFR1 (Homo sapiens, UniProt P11362)", "remaining activity [%]": 83.7}
{"target": "MST1R (Homo sapiens, UniProt Q04912)", "remaining activity [%]": 90.5}
{"target": "GSK3B (Homo sapiens, UniProt P49841)", "remaining activity [%]": 89.3}
{"target": "FGFR3 (Homo sapiens, UniProt P22607)", "remaining activity [%]": 92.2}
{"target": "FRK (Homo sapiens, UniProt P42685)", "remaining activity [%]": 62.8}
{"note": "Some of these lines once more (set 2):"}
{"SMILES": "CC(C)C[C@@H]1NC(=O)[C@H](C)NC(=O)[C@@H](CC(C)C)NC(=O)[C@H](C)NC(=O)[C@H](C)NC(=O)[C@H](CC(C)C)NC(=O)[C@@H](CC(C)C)NC1=O", "logD": -1.63}
{"SMILES": "CC(C)C[C@@H]1NC(=O)[C@H](CC(C)C)NC(=O)[C@@H](C(C)C)NC(=O)[C@H](C(C)C)NC(=O)[C@H](C)NC(=O)[C@H](Cc2cscn2)NC(=O)[C@H](CCC(=O)N2CCCC2)NC1=O", "logD": -3.12}
{"SMILES": "CC(C)C[C@@H]1NC(=O)[C@H](CC(C)C)NC(=O)[C@@H](C(C)C)NC(=O)[C@H](CC(C)C)NC(=O)[C@@H](Cc2cscn2)NC(=O)[C@H](CCC(=O)N2CCCC2)NC(=O)[C@H](C)NC1=O", "logD": -2.58}
{"SMILES": "CC(C)C[C@@H]1NC(=O)[C@H](CC(C)C)NC(=O)[C@H](CC(C)C)NC(=O)[C@H](C(C)C)NC(=O)[C@@H](CCC(=O)N2CCCC2)NC(=O)[C@H](Cc2cscn2)NC(=O)[C@H](C)NC1=O", "logD": -1.77}
{"SMILES": "CC(C)C[C@@H]1NC(=O)[C@H](CC(C)C)NC(=O)[C@H](CC(C)C)NC(=O)[C@H](C(C)C)NC(=O)[C@@H](CCC(=O)N2CCCC2)NC(=O)[C@H](C)NC(=O)[C@H](C)NC1=O", "logD": -2.03}
{"SMILES": "CC(C)C[C@@H]1NC(=O)[C@H](Cc2cscn2)NC(=O)[C@@H](CC(C)C)NC(=O)[C@@H](CCC(=O)N2CCCC2)NC(=O)[C@H](CC(C)C)NC(=O)[C@@H](CC(C)C)NC(=O)[C@H](CC(C)C)NC1=O", "logD": 0.317}
{"SMILES": "CC(C)C[C@@H]1NC(=O)[C@H](CC(C)C)NC(=O)[C@@H](C(C)C)NC(=O)[C@H](C(C)C)NC(=O)[C@H](C(C)C)NC(=O)[C@H](Cc2cscn2)NC(=O)[C@H](C)NC1=O", "logD": -1.45}
